# Assay results gathered from unrelated publications.
# Parts stem from different laboratories: compare values within a part only. Changes are numbered by the printed parent chain.

# Series 1 — method: RNA Bind-n-Seq; molecule type: RNA; sample: in vitro; tested at: 365 nM; relative to: no-protein control; reading: higher = stronger binding
# Target: RNA binding protein fox-1 homolog 2, RRM domain, GST-SBP tag (RBFOX2, Homo sapiens, UniProt O43251-10, residues 100-194)
# Setting: natural RNA segment, single round, ends assumed
# All sequences stand within: GGGAGUUCUACAGUCCGACGAUC … UGGAAUUCUCGGGUGCCAA
# Construct (chain): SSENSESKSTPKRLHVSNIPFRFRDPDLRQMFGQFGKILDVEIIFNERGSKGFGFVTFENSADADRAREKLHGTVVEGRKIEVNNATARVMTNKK
Sequence,RBNS enrichment (R)
UUCUCAAAAGCUGCUUUGUCUCUUUCCUGAGUUUAAUAGUGAAACUACUAAACAUUAAUAGAUUUGCACAGCCACAAAGAAUGAGAGUUGAUAAUACCGAAGAAGUGAUG,0.269
CUUUCCCACAUUUUCCUGUUUUCUUCUGAGCCCUCCAAACUGUUCCAGCCUCUGCCUGUUACCCAGUUCCAAAGUCACUUCCACAUUUUGGGUAUUUCUUCAGCAGGUCC,0.915
CUUUCCUGCAAACCCAUUUCCAGCUCCUAGUAGCUUUCCUCCCAAAGGCUUUCUUUCCAAUCCUUUAUAGCUUUGGAGACGCCUCCCCAAUUCCCCAGGGAAGGAAACUG,0.471
CAAGAACAUGUAAAACUGUGGCUUUUCUGGAAUGGAAUUGGACAUAGCCCAAGAACAGAAAGAACCUUGCUGGGGUUGGAGGUUUCACUUGCACAUCAUGGAGGGUUUAG,0.681
AAUCUCCUGGGAGCAGGGCACAGGGAAGACUAUGAGGAGAGCUAAUGUGGUCUGUACAAGGACACUGGAGGAAGUAUGUUUGCUACCUGUAAGUUCUAAAUGUGUACUCC,0.571
UAUUAGCAUUAGUGUGCACAGGGUACUUUUGAAAUGGUUUUGGAUAGAUUUACAAUAUGUAAGAUUAAGCUGUUGAUUUCAAUAGAGCUGAGAGCUUUUAGUAAAAAUAG,0.957

# Series 2 — method: DHFR PCA, deep sequencing; sample: yeast; added: (+)-ABA 0.032 µM; relative to: wild-type fitted maximum; reading: higher = stronger binding
# Target: ABI1, truncated, D143A, DHFR fusion (Arabidopsis thaliana)
# Setting: methotrexate growth selection, single substitutions
# Starting sequence: PYL1, truncated, DHFR fusion (Arabidopsis thaliana); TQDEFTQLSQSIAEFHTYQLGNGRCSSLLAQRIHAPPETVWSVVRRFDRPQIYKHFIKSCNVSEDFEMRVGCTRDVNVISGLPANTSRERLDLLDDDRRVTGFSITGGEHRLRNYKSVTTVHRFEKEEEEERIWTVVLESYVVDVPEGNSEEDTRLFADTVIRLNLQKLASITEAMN
Substitution,relative binding score
H122F,-1.48%
H122R,2.05%
W134K,4.69%
N177P,33.6%
K116M,1.14%

# Series 3 — target: CCNE1, cyclin fold, Cln2 fusion (human); method: yeast growth competition, sequencing; sample: yeast; setting: strong parent motif; relative to: not given; reading: higher = stronger binding
# Starting sequence: BRCA2 docking peptide (human); PSIKRNLLNEFDR; partner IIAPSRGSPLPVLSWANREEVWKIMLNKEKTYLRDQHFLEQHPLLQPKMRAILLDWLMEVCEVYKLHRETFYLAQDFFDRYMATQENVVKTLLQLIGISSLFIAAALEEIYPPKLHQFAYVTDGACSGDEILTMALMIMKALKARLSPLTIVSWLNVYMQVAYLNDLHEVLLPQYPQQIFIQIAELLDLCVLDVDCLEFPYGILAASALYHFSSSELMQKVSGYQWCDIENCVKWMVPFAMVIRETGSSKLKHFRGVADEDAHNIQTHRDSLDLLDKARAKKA
Substitution,normalised enrichment score
I3V,5.44
L8V,1.09
R5Q,0.732
E10A,0.49
N6F,1.16
R13C,1.4

# Single results of other studies
Molecule,target,assay,test system,conditions,how to read,endpoint,value
"PhoQ, residues 284 288 289 292 302 303 HSYLQF","PhoP, residues 12 14 15 18 19 LWHVM (Escherichia coli, UniProt P23836)","Sort-seq, item: YFP reporter",E. coli,"PhoQ-PhoP variant library, added: 10 µM Mg2+","relative to: high Mg2+ state, higher = stronger signaling",fold induction,22

# A few entries again (series 3):
Substitution,normalised enrichment score
N6F,1.16
E10A,0.49
